Published values collected from several papers.
Parts stem from different laboratories: compare values within a part only.
UniProt Q9Y6M4, sequence (whole entry, looked up): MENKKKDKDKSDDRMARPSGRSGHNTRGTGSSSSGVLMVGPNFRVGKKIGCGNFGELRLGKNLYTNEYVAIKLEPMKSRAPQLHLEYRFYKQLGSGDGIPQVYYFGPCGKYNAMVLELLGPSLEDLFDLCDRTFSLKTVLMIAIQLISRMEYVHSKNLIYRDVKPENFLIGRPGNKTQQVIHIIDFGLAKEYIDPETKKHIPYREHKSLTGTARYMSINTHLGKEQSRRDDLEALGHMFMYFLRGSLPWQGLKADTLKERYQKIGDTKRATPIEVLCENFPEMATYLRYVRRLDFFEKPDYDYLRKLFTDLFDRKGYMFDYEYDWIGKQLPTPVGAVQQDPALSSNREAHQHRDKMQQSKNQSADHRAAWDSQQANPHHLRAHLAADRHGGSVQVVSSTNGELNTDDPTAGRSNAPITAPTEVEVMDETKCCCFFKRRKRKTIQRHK
UniProt P36896, sequence (whole entry, looked up): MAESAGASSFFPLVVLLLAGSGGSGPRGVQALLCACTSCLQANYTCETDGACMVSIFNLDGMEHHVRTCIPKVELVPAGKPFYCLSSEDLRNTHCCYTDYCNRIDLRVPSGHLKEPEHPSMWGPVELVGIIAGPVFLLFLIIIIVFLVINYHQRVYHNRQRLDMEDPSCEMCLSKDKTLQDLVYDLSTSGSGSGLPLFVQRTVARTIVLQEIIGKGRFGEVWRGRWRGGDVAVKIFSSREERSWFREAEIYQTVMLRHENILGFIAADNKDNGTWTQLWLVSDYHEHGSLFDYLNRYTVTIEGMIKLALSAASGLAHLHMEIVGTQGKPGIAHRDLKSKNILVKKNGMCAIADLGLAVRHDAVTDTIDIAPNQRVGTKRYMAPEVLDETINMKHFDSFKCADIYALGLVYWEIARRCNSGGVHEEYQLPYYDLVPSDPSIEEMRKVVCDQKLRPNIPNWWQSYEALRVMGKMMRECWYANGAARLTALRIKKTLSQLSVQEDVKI
UniProt Q02763, sequence (whole entry, looked up): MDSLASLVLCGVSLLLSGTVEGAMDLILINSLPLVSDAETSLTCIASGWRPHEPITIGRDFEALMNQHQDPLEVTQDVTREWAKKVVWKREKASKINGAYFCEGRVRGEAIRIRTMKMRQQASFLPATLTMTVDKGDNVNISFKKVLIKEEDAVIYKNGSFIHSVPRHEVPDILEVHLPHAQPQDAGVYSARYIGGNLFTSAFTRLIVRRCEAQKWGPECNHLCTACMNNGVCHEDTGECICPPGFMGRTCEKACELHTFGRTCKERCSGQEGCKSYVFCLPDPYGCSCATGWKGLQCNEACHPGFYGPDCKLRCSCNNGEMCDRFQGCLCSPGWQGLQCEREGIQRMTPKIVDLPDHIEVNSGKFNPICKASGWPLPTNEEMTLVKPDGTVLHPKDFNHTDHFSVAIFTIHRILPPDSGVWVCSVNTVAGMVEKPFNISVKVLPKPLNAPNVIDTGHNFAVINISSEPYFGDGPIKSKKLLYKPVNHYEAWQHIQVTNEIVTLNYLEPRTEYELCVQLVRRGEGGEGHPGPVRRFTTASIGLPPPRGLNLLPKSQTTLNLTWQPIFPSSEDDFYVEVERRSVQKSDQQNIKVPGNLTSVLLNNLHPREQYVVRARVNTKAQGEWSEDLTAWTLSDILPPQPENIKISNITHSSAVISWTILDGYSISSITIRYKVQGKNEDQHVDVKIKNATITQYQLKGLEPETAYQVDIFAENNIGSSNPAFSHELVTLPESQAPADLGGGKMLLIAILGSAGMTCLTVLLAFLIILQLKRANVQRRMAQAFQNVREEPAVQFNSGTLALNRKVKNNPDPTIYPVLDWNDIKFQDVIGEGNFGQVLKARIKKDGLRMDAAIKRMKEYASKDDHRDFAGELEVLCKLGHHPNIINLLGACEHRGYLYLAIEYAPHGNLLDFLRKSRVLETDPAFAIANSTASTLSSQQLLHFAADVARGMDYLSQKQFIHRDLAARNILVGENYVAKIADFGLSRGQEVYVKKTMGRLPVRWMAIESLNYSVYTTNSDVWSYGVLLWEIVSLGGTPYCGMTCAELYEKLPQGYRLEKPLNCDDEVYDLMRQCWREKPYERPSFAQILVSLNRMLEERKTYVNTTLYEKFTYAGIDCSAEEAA
UniProt Q12866, sequence (whole entry, looked up): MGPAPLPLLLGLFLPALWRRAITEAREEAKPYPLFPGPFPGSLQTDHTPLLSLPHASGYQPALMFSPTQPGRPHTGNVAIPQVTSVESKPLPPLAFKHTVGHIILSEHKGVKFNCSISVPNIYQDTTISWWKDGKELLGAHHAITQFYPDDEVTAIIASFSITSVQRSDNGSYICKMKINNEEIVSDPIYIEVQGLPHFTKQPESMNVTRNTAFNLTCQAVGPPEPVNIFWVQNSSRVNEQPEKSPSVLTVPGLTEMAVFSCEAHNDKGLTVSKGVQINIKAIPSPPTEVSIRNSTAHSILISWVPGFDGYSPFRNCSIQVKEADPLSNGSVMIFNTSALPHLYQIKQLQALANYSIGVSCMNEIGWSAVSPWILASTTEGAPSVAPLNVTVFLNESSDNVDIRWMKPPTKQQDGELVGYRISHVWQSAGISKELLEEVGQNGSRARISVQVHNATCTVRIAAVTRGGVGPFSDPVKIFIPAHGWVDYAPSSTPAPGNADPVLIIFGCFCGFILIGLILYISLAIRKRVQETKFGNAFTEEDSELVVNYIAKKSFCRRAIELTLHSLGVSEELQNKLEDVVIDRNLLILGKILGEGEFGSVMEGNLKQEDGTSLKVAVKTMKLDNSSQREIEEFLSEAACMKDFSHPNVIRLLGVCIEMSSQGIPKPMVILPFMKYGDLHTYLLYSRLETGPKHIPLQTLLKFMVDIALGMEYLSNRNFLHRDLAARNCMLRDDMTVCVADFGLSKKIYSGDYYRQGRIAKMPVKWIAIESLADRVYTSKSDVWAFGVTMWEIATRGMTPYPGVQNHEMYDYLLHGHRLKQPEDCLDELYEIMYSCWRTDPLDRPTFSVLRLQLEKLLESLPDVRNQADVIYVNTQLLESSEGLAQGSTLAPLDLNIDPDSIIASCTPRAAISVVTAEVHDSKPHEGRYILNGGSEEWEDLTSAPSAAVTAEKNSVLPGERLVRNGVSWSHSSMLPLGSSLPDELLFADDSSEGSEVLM
UniProt P49137, sequence (whole entry, looked up): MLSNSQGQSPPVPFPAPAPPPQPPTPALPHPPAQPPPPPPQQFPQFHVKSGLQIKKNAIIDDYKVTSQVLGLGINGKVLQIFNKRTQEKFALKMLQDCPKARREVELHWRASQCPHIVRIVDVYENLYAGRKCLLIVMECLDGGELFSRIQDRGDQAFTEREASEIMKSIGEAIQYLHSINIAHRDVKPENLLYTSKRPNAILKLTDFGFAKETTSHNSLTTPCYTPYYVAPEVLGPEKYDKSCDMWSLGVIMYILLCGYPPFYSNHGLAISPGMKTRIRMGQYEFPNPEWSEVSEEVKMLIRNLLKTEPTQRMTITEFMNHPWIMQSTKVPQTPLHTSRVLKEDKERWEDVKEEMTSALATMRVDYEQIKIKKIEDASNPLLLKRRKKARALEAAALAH
UniProt Q9UHD2, sequence (whole entry, looked up): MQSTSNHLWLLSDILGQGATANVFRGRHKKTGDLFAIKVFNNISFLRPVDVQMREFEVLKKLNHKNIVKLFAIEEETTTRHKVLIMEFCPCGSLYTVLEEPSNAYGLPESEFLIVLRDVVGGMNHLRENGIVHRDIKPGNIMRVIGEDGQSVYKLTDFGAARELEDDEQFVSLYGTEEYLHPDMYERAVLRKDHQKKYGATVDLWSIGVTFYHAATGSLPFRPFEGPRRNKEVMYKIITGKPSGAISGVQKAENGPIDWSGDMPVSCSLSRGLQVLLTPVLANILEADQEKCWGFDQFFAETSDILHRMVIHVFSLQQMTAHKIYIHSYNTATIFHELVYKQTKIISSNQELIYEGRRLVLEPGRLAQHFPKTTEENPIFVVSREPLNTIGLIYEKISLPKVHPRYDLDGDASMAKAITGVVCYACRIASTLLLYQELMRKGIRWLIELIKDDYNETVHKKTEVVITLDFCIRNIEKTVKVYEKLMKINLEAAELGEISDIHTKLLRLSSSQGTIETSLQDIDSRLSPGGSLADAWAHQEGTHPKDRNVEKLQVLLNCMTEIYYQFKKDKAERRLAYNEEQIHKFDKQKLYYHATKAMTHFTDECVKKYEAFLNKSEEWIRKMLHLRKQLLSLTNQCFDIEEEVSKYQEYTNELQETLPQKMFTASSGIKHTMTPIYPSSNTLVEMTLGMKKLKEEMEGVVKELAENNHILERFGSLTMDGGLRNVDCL
UniProt P78368, sequence (whole entry, looked up): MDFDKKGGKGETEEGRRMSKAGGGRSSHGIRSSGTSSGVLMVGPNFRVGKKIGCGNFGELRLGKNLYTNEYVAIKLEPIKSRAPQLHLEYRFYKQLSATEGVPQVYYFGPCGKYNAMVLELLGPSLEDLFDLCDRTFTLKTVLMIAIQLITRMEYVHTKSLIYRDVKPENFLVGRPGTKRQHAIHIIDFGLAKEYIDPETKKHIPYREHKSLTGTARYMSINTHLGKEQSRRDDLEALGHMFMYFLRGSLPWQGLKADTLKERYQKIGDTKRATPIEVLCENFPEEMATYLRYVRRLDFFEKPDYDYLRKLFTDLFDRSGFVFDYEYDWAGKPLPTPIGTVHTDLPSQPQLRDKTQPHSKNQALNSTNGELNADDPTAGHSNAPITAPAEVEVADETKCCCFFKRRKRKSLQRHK
UniProt P27361, sequence (whole entry, looked up): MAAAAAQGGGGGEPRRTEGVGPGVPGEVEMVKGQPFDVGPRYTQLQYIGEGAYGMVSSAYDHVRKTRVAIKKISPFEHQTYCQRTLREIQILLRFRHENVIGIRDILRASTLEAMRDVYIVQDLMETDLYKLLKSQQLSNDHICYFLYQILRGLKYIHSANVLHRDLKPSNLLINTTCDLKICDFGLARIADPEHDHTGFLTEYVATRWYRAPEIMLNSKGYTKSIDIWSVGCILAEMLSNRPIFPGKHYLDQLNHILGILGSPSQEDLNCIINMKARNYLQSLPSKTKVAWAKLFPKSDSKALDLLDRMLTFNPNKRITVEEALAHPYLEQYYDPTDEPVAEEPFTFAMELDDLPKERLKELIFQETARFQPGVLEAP

Sample 1
SMILES: Cc1cncc2cccc(S(=O)(=O)N3CCCN(C(=O)CN)C[C@@H]3C)c12
Observed: enzyme activity
Action: inhibitor
Tested at: 0.5 µM
Reference: control
Endpoint: remaining activity
MAP kinase-activated protein kinase 2 (MAPKAPK2, Homo sapiens, UniProt P49137): 103%
Serine/threonine-protein kinase ULK2 (ULK2, Homo sapiens, UniProt Q8IYT8): 98.8%
Serine/threonine-protein kinase ULK3 (ULK3, Homo sapiens, UniProt Q6PHR2): 83.2%
Rhodopsin kinase GRK7 (GRK7, Homo sapiens, UniProt Q8WTQ7): 88.8%
Serine/threonine-protein kinase Nek6 (NEK6, Homo sapiens, UniProt Q9HC98): 93.3%
Mitogen-activated protein kinase kinase kinase 14 (MAP3K14, Homo sapiens, UniProt Q99558): 109%
Angiopoietin-1 receptor (TEK, Homo sapiens, UniProt Q02763): 98.6%
Casein kinase I isoform gamma-2 (CSNK1G2, Homo sapiens, UniProt P78368): 95.1%
Ribosomal protein S6 kinase alpha-2 (RPS6KA2, Homo sapiens, UniProt Q15349): 89.2%
Fibroblast growth factor receptor 1 (FGFR1, Homo sapiens, UniProt P11362): 85.7%
Serine/threonine-protein kinase Nek1 (NEK1, Homo sapiens, UniProt Q96PY6): 100%
Tyrosine-protein kinase FRK (FRK, Homo sapiens, UniProt P42685): 114%
Tyrosine-protein kinase Mer (MERTK, Homo sapiens, UniProt Q12866): 95.4%
Casein kinase I isoform gamma-3 (CSNK1G3, Homo sapiens, UniProt Q9Y6M4): 106%
Tyrosine-protein kinase JAK3 (JAK3, Homo sapiens, UniProt P52333): 93.1%
Mitogen-activated protein kinase 3 (MAPK3, Homo sapiens, UniProt P27361): 103%
Mitogen-activated protein kinase kinase kinase 5 (MAP3K5, Homo sapiens, UniProt Q99683): 106%
Serine/threonine-protein kinase TBK1 (TBK1, Homo sapiens, UniProt Q9UHD2): 95.7%
Serine/threonine-protein kinase TAO2 (TAOK2, Homo sapiens, UniProt Q9UL54): 94%
Fibroblast growth factor receptor 3 (FGFR3, Homo sapiens, UniProt P22607): 97.7%
Dual specificity mitogen-activated protein kinase kinase 2 (MAP2K2, Homo sapiens, UniProt P36507): 106%
Activin receptor type-1B (ACVR1B, Homo sapiens, UniProt P36896): 100%

Sample 2
Structure (SMILES): COc1cc(-c2cn(C3CCc4ccccc4N(CC(F)(F)F)C3=O)nn2)ccc1-n1ccc(C)n1 (centres unmarked)
Technique: competition with immobilised ligand
Tested at: 1 µM
Endpoint: remaining binding
Dual specificity testis-specific protein kinase 1 (TESK1, Homo sapiens, UniProt Q15569); cell-free assay: 93%
eIF-2-alpha kinase GCN2, C-terminal kinase domain (EIF2AK4, Homo sapiens, UniProt Q9P2K8, S808G); cell-free assay: 100%
Casein kinase I isoform gamma-3 (CSNK1G3, Homo sapiens, UniProt Q9Y6M4); cell-free assay: 86%
Serine/threonine-protein kinase ULK1 (ULK1, Homo sapiens, UniProt O75385); cell-free assay: 76%
Phosphatidylinositol 3-kinase C2 domain-containing subunit gamma (PIK3C2G, Homo sapiens, UniProt O75747); cell-free assay: 65%
Tyrosine-protein kinase ABL1, non-phosphorylated (ABL1, Homo sapiens, UniProt P00519, H396P); binding: 47%

Sample 3
Target: RNA binding protein fox-1 homolog 2, RRM domain, GST-SBP tag (RBFOX2, Homo sapiens, UniProt O43251-10, residues 100-194)
Technique: RNA Bind-n-Seq
Form: RNA
Medium: in vitro
Tested at: 365 nM
Setting: natural RNA segment, single round, ends assumed
Reference: no-protein control
Reading: higher = stronger binding
Endpoint: RBNS enrichment (R)
Target sequence (chain): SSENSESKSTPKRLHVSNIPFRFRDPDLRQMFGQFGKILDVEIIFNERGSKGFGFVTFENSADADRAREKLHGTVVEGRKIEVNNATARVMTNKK
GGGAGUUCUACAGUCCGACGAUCAGAGGCCAUGUUGGGGGGACAGCCAUUGAGUUUAUUCCUUUACCUCAUGUGACCCCAGCAACUUUGGUGAUACUGAGAGGCCAGCAGGCAGUAGAGUGGACACCUCGGCCUGGAAUUCUCGGGUGCCAA: 0.434
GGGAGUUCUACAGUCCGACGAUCAUAUAUUUGCAUGUUCACUGACCCAGCCUGAGCUCUCCCCAGCCUCGUGGGUGGUGACUUUUCCUGCAGGGCGCACGCCCUGCUGCAGCCCCCUCCCCCGCAGCCCGGAAUGGAAUUCUCGGGUGCCAA: 5.53
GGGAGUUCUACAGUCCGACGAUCUGCCCACCCCGGCUGCUCUUGACACUUCCAUUGUGUGUGGGAACGUUUCUUCUGGAGAAUUGGAACAUGUGUGGCCCCAAGCUCAACAGAAACCAGUUGUUCCCAAUCUGUGGAAUUCUCGGGUGCCAA: 0.581
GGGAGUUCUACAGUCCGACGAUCGUGAAAUGAUAAGGGCAUUCUAUCUGCUUGCUGUGACCAGCGUGUGCACACAAACCUUAACAAGACUGCAAAUACUCCAGAAGGAAGUCAUUUAGUUAUGAACGAAAUAAUGGAAUUCUCGGGUGCCAA: 0.887
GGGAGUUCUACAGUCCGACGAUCGGGAAUUGUGUAUAGCUGAUUUUUUGUGGGAAACUGUUUACUUCAUUCAAAGGUUCUUGAGACUCUUGAUAUUUCUGUCUUCUCCUUGUGCUUUCCUAUGGAAAAAAUACUGGAAUUCUCGGGUGCCAA: 0.747
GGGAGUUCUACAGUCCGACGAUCGCUUUGUGUAGAUUUGUGUAGAGCAGGAAAGCCAAGUUCACAGGUUGGGGUGCCUUCAUUUGCAUGCGUGUGCCCUGACCCCAAGAACCCCCAAAUUACUCACAAAUUAAUGGAAUUCUCGGGUGCCAA: 7.09
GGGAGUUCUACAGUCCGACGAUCCUUACAAGGAGGGGUUACCAUGUAUCACACCUAAUCUUCCCAAUGUUUGGGAUAUUAAAACACAAAGUCCUUAACAUGCCAGGCUCAAGGUCUUAUAAGAGUUCUAGAUUUGGAAUUCUCGGGUGCCAA: 0.354
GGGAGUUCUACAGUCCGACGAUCGCGCAUAAAAGCCUGCUGGCUCGGGGCGCCUGCCUCCCUGCUCCUCUGUCCUCAAACAGUGAACCCAGGCUGCAGCCUGAGACCUGGACUCUAGCCCCCAUCCAUCCUUCUGGAAUUCUCGGGUGCCAA: 0.194

Sample 4
Target: Microphthalmia-associated transcription factor, full length (MITF, Homo sapiens, UniProt O75030-10, residues 1-413)
Technique: protein-binding microarray
Form: double-stranded DNA, one strand shown
Medium: in vitro
Tested at: not given
Setting: k-mer, scored over probes, only values ≥0.25
Reading: higher = stronger binding
Endpoint: E-score
AGTCATG: 0.375
ATCACGA: 0.42
CCTCGAG: 0.251
CACACGA: 0.3
CATGAGG: 0.34
ATCATGA: 0.338
CACGTGC: 0.491
ACCCCAT: 0.262

A few entries again (sample 1):
Casein kinase I isoform gamma-3 (CSNK1G3, Homo sapiens, UniProt Q9Y6M4): 106%
Mitogen-activated protein kinase kinase kinase 14 (MAP3K14, Homo sapiens, UniProt Q99558): 109%
Tyrosine-protein kinase Mer (MERTK, Homo sapiens, UniProt Q12866): 95.4%
Casein kinase I isoform gamma-2 (CSNK1G2, Homo sapiens, UniProt P78368): 95.1%
